Published values gathered from unrelated publications.
Parts stem from different laboratories: compare values within a part only.

Block 1
Target: Centromere-binding protein 1, full length, N-terminal tag (CBF1, Saccharomyces cerevisiae, UniProt P17106, residues 1-351)
Chain of UniProt P17106 (whole entry, looked up): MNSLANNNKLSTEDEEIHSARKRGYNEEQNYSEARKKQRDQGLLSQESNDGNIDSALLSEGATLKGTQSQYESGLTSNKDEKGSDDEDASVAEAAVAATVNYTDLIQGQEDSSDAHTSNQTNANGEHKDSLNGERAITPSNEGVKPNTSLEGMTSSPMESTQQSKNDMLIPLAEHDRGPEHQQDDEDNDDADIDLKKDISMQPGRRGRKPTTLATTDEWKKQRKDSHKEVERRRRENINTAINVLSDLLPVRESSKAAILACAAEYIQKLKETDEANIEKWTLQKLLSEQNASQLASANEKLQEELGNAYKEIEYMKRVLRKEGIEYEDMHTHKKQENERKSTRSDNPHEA
Method: protein-binding microarray
Form: double-stranded DNA, one strand shown
Matrix: in vitro
Concentration: 0.8 µM
Setting: whole 60-bp probe, no competitor
Reading: higher = stronger binding
Constant ends, left off below: … GTCTTGATTCGCTTGACGCTGCTG
| Sequence | fluorescence intensity |
| --- | --- |
| CTAGTGTCAAATGTGGACATGATGACATAAGGTTTC | 532 a.u. |
| TGTACGAAGCTATATCACGTGACTATAGTAGTTAGG | 37400 a.u. |
| GAACATTAAAAGCCGCATGTGGCATCCTGAATTTAG | 646 a.u. |
| CTAAGTGATTTTTATCACGTGACACTTTTTTATTTC | 33000 a.u. |
| GAACTAGGCGTTTGTCACCTTTCATCCGTGCCGTAG | 517 a.u. |
| GAACGTTGACTTCGTCATCTGACTTAATAGCAGTAG | 1670 a.u. |
| CCTAACTACTATAAGCACATGACATAGCTTCGTACA | 1750 a.u. |
| GAAAAGATCGTAAGCAACGTGTTCAACACGTACTAG | 1630 a.u. |
| GAATTACATCGTGATCACGTTTCTTTTTTCGTTTAG | 7160 a.u. |
| CTAAATGGTCCAAAGCATGTGCTAAACTGCCACTTC | 597 a.u. |
| CCTAACTACTATATCATCACCACATAGCTTCGTACA | 531 a.u. |
| CTATTTATTTACTGTCACCTTGATGAGCGACTATTC | 561 a.u. |
| TGTACGAAGCTATCGCATGTTCTTATAGTAGTTAGG | 537 a.u. |
| GAAACAAAATATGATCACATCACTTCTTAAATGTAG | 574 a.u. |
| GAACGTTGGGTTATCCACGGGGTTTTCTGAGCATAG | 571 a.u. |
| CTATAGACAGAAAATCACGCCTGTAGGGGTCCATTC | 571 a.u. |
| CTAACTTTGAACGATCACCTCTGCAATGTGACATTC | 536 a.u. |
| GAAATGGTGAAAAACCACGTTCTCGAAGCCAATTAG | 598 a.u. |
| GAAAGCCTTTGAATGATCGTGCTGACCGTAATTTAG | 581 a.u. |

Block 2
Target: RNA binding protein fox-1 homolog 2, RRM domain, GST-SBP tag (RBFOX2, Homo sapiens, UniProt O43251-10, residues 100-194)
Method: RNA Bind-n-Seq
Form: RNA
Matrix: in vitro
Concentration: 365 nM
Setting: natural RNA segment, single round, ends assumed
Baseline: no-protein control
Reading: higher = stronger binding
Constant ends, left off below: GGGAGUUCUACAGUCCGACGAUC … UGGAAUUCUCGGGUGCCAA
Target sequence (chain): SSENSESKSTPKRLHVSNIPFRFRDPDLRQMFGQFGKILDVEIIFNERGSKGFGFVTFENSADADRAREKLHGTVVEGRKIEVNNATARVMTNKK
| Sequence | RBNS enrichment (R) |
| --- | --- |
| GCUUCAAGAUGGCACCAGCUCUUUGGGCCUAGGAUACUGCCGGGCCCCCCAAGGGGGUCCCCAGCAACCAGGCCUGGCCUCCUGGUGUCUGCGGUCACAGUGGCCCCUGG | 0.218 |
| UGCUUCUCAUUUGUUUAUGUAUUCAUGAAUACUGCAUAGUCCUGAUUCAGAGACUUUUGCUUUGCUUUCCAACUUGUAUCCCUACAUUCUCACAACAGCCUUCUUACCUC | 0.554 |
| AGUAUUUUCAGACUGAAGAAAACUUUGAAAAGUCAGGAGCUAAGCUGCUCGGAGCUCAGUGCCGCAGCAUGGCUGUGGUGGACGCGGGAAACAACGGGAAAGUUCUUGAC | 0.241 |
| ACCCCUUUUUAUACAGAUGUUUUUAUAUGUGUGUGCUCAGGCCUGCCGAGAUGCAGGGCAAAGUUGCUGUGGCAUCUUUGUUCCUCUCCCUGGGUCUGCACUCCCUCCCC | 0.41 |
| GGGAUAAUCCCUGAAGAGUUGGCAGUGUGAGUGCAACUCAUUUAUCUUCUGUGAGGUGGGAUUUUUGUGUUCCUCACACCCAUGUAAUUAUUCUUAGAAUUGAGAUUGCU | 0.571 |
| UGUGAAAUUCCCUCUUCACCUCCCCACCCCCCAAAAAAUAAAAGGGGGCAUAAACUUUAUUCCACUGGAGAAGCCCUGGGGGUGGCUGGAGCCAGCCUGCUGAGAAGCGU | 0.615 |
| AAAGGAGAGAACUGUUAACUAGCAGAAUGCAUUUUAUAGAGCUCUGGCUAACCGCCUCUUAGCCCACGGUUACCCAGUCAUUUGUCUCAGUUAACAUUUAAAGGAGUUUU | 1.05 |
| AGAGGGUUGCCUAUGGUGGGCACUAGGAAUGAGGUCCCCUGCCUCGAUGCGGGUCCUAGGAGAAAAAGUCCUACUUUUCUGGGUCCCCAGGUGCAGCACCUCCCGGAGAC | 0.412 |

Block 3
Target: Ras GTPase-activating protein-binding protein 1, full length (G3BP1, Homo sapiens, UniProt Q13283)
Chain of UniProt Q13283 (whole entry, looked up): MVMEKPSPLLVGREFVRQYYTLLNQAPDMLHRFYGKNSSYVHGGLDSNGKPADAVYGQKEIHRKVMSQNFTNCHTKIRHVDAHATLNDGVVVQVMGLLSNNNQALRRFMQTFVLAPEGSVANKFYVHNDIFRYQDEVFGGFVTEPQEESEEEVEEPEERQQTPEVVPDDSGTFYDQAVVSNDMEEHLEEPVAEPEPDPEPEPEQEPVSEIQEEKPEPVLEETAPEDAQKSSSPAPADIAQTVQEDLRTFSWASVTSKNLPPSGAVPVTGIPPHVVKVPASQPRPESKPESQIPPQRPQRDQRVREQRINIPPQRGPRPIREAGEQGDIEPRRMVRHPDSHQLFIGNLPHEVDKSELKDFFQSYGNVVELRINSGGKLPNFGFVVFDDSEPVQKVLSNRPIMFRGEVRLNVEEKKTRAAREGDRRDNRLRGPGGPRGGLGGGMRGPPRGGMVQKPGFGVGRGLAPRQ
Method: RNA Bind-n-Seq
Form: RNA
Matrix: in vitro
Concentration: 200 nM
Setting: whole 134-nt RNA, ends assumed
Together with: 150 mM LiCl
Baseline: input library
Reading: higher = stronger binding
All molecules: 7-deaza-guanosine replaces G
Constant ends, left off below: GGGAGUUCUACAGUCCGACGAUC … UGGAAUUCUCGGGUGUCAAGG
| Sequence | log2 enrichment |
| --- | --- |
| AAGUCCUGUGCUACACAUCGUAUGUACCGAAUCGGGGUUUGGGUUUGGGGUUUGGGGAAAGUAUUAUGUUACGCCGUUCGGAUCUGCACU | -0.34 |
| CUCAAGUCCUGUGCUACACAUCGUAUGUACCGAAUCGGAGGAAAGGAAAAAGGAAAGUAUUAUGUUACGCCGUUCGGAUCUGCACUUCCA | -0.959 |
| CCUCAAGUCCUGUGCUACACAUCGUAUGUACCGAAUCGGUUUGGAAAGGUGGAAAGUAUUAUGUUACGCCGUUCGGAUCUGCACUUCCAG | 0.212 |
| AGUCCUGUGCUACACAUCGUAUGUACCGAAUCGGGUUUUUUUGGGAAAAAGGGAGGGAAAGUAUUAUGUUACGCCGUUCGGAUCUGCACU | -1.6 |
| AGUCCUGUGCUACACAUCGUAUGUACCGAAUCGGGGUUUGGGGAGGGGAAAAAGGGGAAAGUAUUAUGUUACGCCGUUCGGAUCUGCACU | 0.449 |
| UAACUUUAGAGGAGGAUGUGAUGGAUAUGGCAGUGGACGUGGAUUUGGGGAUGGCUAUAAUGGGUAUGGAGGAGGACCUGGAGGUGGCAA | 0.00416 |
| AAGUCCUGUGCUACACAUCGUAUGUACCGAAUCGGGGUUUUGGGUUUUGGUUUUGGAAAGUAUUAUGUUACGCCGUUCGGAUCUGCACUU | -1.12 |
| AAGUCCUGUGCUACACAUCGUAUGUACCGAAUCGGAAAAAGGUUUGGAAAAAAAGGAAAGUAUUAUGUUACGCCGUUCGGAUCUGCACUU | -1.92 |

Block 4
Target: Prothrombin, mature alpha-thrombin (F2, Homo sapiens, UniProt P00734)
Method: aptamer microarray, sandwich
Form: DNA with 2'F-ANA
Matrix: in vitro
Concentration: 200 nM
Setting: whole 15-mer aptamer, many near background
Together with: Cy3 exosite-II aptamer, 400 nM
Reading: higher = stronger binding
Sequence: GGTTGGTGTGGTTGG
| Modification | mean fluorescence intensity |
| --- | --- |
| 2'F-ANA at 3 8 9 11 12 | 1250 a.u. |
| 2'F-ANA at 1 4 5 6 9 12 13 14 | 65.1 a.u. |
| 2'F-ANA at 4 5 6 7 8 11 13 14 15 | 54.3 a.u. |
| 2'F-ANA at 2 3 4 5 8 14 | 52.3 a.u. |
| 2'F-ANA at 1 2 3 4 5 6 9 14 15 | 47.7 a.u. |
| 2'F-ANA at 4 5 6 7 13 14 | 45.8 a.u. |
| 2'F-ANA at 2 3 4 7 8 10 13 14 | 204 a.u. |
| 2'F-ANA at 2 3 6 8 9 10 | 325 a.u. |
| 2'F-ANA at 1 2 3 4 5 6 8 9 12 | 121 a.u. |
| 2'F-ANA at 1 2 4 5 6 12 13 14 15 | 50 a.u. |
| 2'F-ANA at 1 2 7 8 9 11 13 14 | 49.5 a.u. |
| 2'F-ANA at 2 3 5 10 12 13 15 | 54.5 a.u. |
| 2'F-ANA at 2 4 5 7 10 13 | 46.8 a.u. |
| 2'F-ANA at 1 2 5 6 9 11 12 14 15 | 49.6 a.u. |
| 2'F-ANA at 1 2 3 5 12 | 128 a.u. |
| 2'F-ANA at 1 3 5 6 8 10 11 12 13 14 15 | 49.2 a.u. |

A few entries again (block 3):
| Sequence | log2 enrichment |
| --- | --- |
| UAACUUUAGAGGAGGAUGUGAUGGAUAUGGCAGUGGACGUGGAUUUGGGGAUGGCUAUAAUGGGUAUGGAGGAGGACCUGGAGGUGGCAA | 0.00416 |
| AGUCCUGUGCUACACAUCGUAUGUACCGAAUCGGGGUUUGGGGAGGGGAAAAAGGGGAAAGUAUUAUGUUACGCCGUUCGGAUCUGCACU | 0.449 |
| CUCAAGUCCUGUGCUACACAUCGUAUGUACCGAAUCGGAGGAAAGGAAAAAGGAAAGUAUUAUGUUACGCCGUUCGGAUCUGCACUUCCA | -0.959 |
| AGUCCUGUGCUACACAUCGUAUGUACCGAAUCGGGUUUUUUUGGGAAAAAGGGAGGGAAAGUAUUAUGUUACGCCGUUCGGAUCUGCACU | -1.6 |
| AAGUCCUGUGCUACACAUCGUAUGUACCGAAUCGGAAAAAGGUUUGGAAAAAAAGGAAAGUAUUAUGUUACGCCGUUCGGAUCUGCACUU | -1.92 |
| CCUCAAGUCCUGUGCUACACAUCGUAUGUACCGAAUCGGUUUGGAAAGGUGGAAAGUAUUAUGUUACGCCGUUCGGAUCUGCACUUCCAG | 0.212 |
